Experimental data of several laboratories.
Numbered parts are unrelated; each lists some results of a single study. Changes are numbered by the printed parent chain.

Series 1 — technique: universal PBM; molecule type: double-stranded DNA, one strand shown; sample: in vitro; tested at: not given; direction: higher = stronger binding
Target: Sal-like protein 4, full length isoform B (SALL4, Homo sapiens, UniProt Q9UJQ4-2, residues 1-616)
Setting: 8-mer, flanks averaged, mean of replicates
Target sequence (chain): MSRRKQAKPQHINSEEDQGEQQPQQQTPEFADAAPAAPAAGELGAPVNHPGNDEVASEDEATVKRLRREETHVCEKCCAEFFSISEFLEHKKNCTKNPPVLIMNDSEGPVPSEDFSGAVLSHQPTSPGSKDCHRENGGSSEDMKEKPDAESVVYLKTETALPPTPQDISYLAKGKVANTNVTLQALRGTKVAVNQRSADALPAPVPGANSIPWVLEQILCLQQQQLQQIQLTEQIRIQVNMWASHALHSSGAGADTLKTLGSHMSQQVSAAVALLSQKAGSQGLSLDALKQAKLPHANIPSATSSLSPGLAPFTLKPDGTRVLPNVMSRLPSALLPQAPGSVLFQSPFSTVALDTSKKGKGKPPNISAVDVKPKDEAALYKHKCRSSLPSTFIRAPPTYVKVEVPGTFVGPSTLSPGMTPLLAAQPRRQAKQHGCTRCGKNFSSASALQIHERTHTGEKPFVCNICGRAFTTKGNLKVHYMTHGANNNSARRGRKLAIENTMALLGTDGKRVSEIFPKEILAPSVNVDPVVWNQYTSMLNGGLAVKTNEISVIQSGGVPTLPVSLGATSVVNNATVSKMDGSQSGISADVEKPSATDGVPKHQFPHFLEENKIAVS
Sequence | E-score
AGGTAGGC | -0.077
GCAGGTAC | -0.212
CCTGGCGA | -0.263
GCTCATCC | -0.206
GGTTCGGA | -0.243
ATCTTCAG | 0.0625
ATGCCCCA | -0.249
ATCCATTG | 0.131
ACGCGCGA | -0.266
TAATAGTA | 0.308
CGTATCCA | -0.00772
CGCGGGCA | -0.282
AACTCGCT | -0.017
AATATTGA | 0.416
CCGATATC | -0.0166
CGAATTAC | 0.0728
GAGTACGC | -0.211
AGCTTGTC | -0.0925
ATAAGGAC | 0.114
AATCACTC | 0.131

Series 2 — technique: protein binding microarray; molecule type: double-stranded DNA, one strand shown; sample: in vitro; tested at: not given; reference: not given; direction: higher = stronger binding
Target: Histone acetyltransferase KAT6A, winged helix 2, GST fusion (KAT6A, Homo sapiens, UniProt Q92794, residues 85-181)
Setting: 8-mer, flanks averaged, mean of 2 arrays, mostly near background
Residues (chain): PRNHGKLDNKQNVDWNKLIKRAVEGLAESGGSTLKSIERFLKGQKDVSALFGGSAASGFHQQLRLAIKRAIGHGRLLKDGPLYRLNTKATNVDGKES
Sequence | E-score
AACAATCG | -0.0989
AAAAAACC | -0.129
CCATTGTA | -0.121
CCGTGGAG | 0.0842
GCCCACTA | -0.0635
GCTCCAGA | 0.157
AGTGTGTG | 0.152
AAAAGTCA | -0.0838
GCGACCAC | 0.0929
AGCTCGCG | 0.258
ATCATCGG | 0.0529
CAGTATGG | 0.0907
CTACTGCA | -0.0519
ATTCGGGC | 0.0522
AGTGAAAT | 0.0353
AGAGTGCG | 0.0712
AGGTCCAG | 0.157
AGTTTAAC | -0.151
GAAAAGAC | -0.0426
CTCACATC | 0.0482
TCATCCAA | 0.0291
CACGCCAA | 0.14
ACAGGCCT | -0.161
TACTAATA | -0.0111
TGTAGGAA | -0.101

Series 3 — target: CCNB1, cyclin fold, Cln2 fusion (human); technique: yeast growth competition, sequencing; sample: yeast; setting: weak parent motif; reference: not given; direction: higher = stronger binding
Parent: CDKN1B docking peptide (human); PSACRNLFGPVDH
Variant | normalised enrichment score
PSACRNLFGNVDH [P10N] | 0.688
PSACRELFGPVDH [N6E] | 0.212
FSACRNLFGPVDH [P1F] | 0.429
PSACRNVFGPVDH [L7V] | 0.879
PSACRNLFGPVEH [D12E] | 0.197
PSACGNLFGPVDH [R5G] | -0.00609
PNACRNLFGPVDH [S2N] | 0.628
PDACRNLFGPVDH [S2D] | 0.398
PSACRNLFGGVDH [P10G] | 0.532
ISACRNLFGPVDH [P1I] | 0.231
PSACRNLFMPVDH [G9M] | 0.625
PSACRNLFVPVDH [G9V] | 0.491
PSACRKLFGPVDH [N6K] | 1.06
PSSCRNLFGPVDH [A3S] | 0.572
PSACRMLFGPVDH [N6M] | 0.535
PSALRNLFGPVDH [C4L] | 0.462
QSACRNLFGPVDH [P1Q] | 0.757
PSACRNEFGPVDH [L7E] | 0.296
PSACRNLFGPVDR [H13R] | 0.504
PSACRNLQGPVDH [F8Q] | 0.574
PSACRNLFGVVDH [P10V] | 0.37
PSYCRNLFGPVDH [A3Y] | 0.63
PAACRNLFGPVDH [S2A] | 0.744
PSHCRNLFGPVDH [A3H] | 0.25
PSACRNLFGPVTH [D12T] | 0.363

Series 4 — technique: RNA Bind-n-Seq; molecule type: RNA; sample: in vitro; tested at: 365 nM; reference: no-protein control; direction: higher = stronger binding
Target: RNA binding protein fox-1 homolog 2, RRM domain, GST-SBP tag (RBFOX2, Homo sapiens, UniProt O43251-10, residues 100-194)
Setting: natural RNA segment, single round, ends assumed
Shared flanks, not repeated: GGGAGUUCUACAGUCCGACGAUC … UGGAAUUCUCGGGUGCCAA
Construct (chain): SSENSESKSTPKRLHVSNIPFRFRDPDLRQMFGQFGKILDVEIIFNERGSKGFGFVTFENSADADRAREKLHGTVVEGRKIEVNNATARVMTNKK
Sequence | RBNS enrichment (R)
UUUCAAUGUCAGUCACAGAGUGGAAGUUUCCCCAAAGUGGAAAGCUACCAUUGGGAACACAAGGGGCCCCUGAGGGGCCUCCACCUCACUGCCUUAAGUGAGUCCCGCCC | 0.201
ACUGUGUCUGCCCAGUAACCUGUUCUGAGUUACUGGUAAAGUCGUGGGUGGGUGAAUGGCAGGCUUCUGUAGGAACUUGUGUAAUUAUGCCAUUUUUAUAUUCCUAAUAA | 0.661
UUAACAUUAAUAGAACAAUCCAAAUGUUGAGCAUAUUUUGAUAUUAAACUAAAGAUCACGUCUCUGUUUUUAAAUUAUGCUAACACCACCACAGAUUAUGUUGACGUAUU | 0.374
UCACUUUAAAAUCUAUCGAAGCUCUUUUAACGUAAUGGGUGACAAUGUCACAUGACAGAUGCCAUGAAGAAGUCAACCGAUAUAGCUUGGAUCUGUGAACCCUGUACUGC | 0.415
CACUCUGCAUUAUAGCAGCAGCUUAUUUCUCUAAGGCUGGACAGCCUGGCUCUCGGCAGUGACGUCCUCCCACACCUGGUCACAAGUAGUAGUGGCUGUGCUAUACCCAG | 0.342
GCCACAGCGUAGGUCAUUGCUUGAAAAAAAUGACAGUGACAAUGGAGUGUGACCUUGGUGUACUGUGGCAGCCCAGAUGACUGAGUGCUACAGACGAGUGACCCUUAGAU | 1.04
UUUUGGUAGUUGUUGUUACCCACGCCAUUUUACGUCUCCUUCACUGAAGGGCUAGAGUUUUAACUUUUAAUUUUUUAUAUUUAAAUGUAGACUUUUGACACUUUUAAAAA | 0.641
UAAAAGUGAAAUUAACCUCCUGCCAAUUUUACAACCCAAGAAUUUUUUUUUAAGGGCCUUGGAGCCAUCUCUAAAACAAACCUCAAGGGAUUUAGUGCCCUGUCUCCCUG | 0.563
GAGUGGGUAGGGCAAAAAGAGCCCUUUCCGCCCUCUACCCAUCUAAUUCUGAUCCUCUACCUGUAGGAGGACUUUGGUGUGAUCAUCCUUCUCCCAGGGCCCGGCUACCC | 0.253
ACUUAGUGGUUUUCUCUAUUUUGAAAUUUUUUGAUCAAAAACUGAUUAGUGAAUAUAGUUUGGAGUUUGGCUUCGUGUCCUGGGUUCUUCCCCGUCCCUUUUCUGUCAGC | 0.672
CCUCAGGUAACUGUAAAUACCGACGUGGUAAACUUGCUUGAGUACUGUGUGUCUCCCUCAUGGAGUGCGAGGAUUUGAGCAUUUUCUGCUUCUUUAUGCUUUUUCAUUUA | 0.417
UACCUCUUUCCUUGACUCUCUUCUUAUUUGUAAUACUCUGAGUUCUGCAUCUGUCUCAGACAGGAGCUACCAAAGGGAAACUGUUGUUCUUAUAAGUGUCUUACUUUAAA | 0.241

Series 5 — technique: DHFR PCA, deep sequencing; sample: yeast; together with: (+)-ABA 0.0091 µM; reference: wild-type fitted maximum; direction: higher = stronger binding
Target: ABI1, truncated, D143A, DHFR fusion (Arabidopsis thaliana)
Setting: methotrexate growth selection, single substitutions
Parent: PYL1, truncated, DHFR fusion (Arabidopsis thaliana); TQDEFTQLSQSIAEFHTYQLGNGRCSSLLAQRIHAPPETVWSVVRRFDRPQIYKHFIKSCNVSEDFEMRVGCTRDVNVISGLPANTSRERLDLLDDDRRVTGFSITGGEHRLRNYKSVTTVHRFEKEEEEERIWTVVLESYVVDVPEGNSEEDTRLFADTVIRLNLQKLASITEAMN; partner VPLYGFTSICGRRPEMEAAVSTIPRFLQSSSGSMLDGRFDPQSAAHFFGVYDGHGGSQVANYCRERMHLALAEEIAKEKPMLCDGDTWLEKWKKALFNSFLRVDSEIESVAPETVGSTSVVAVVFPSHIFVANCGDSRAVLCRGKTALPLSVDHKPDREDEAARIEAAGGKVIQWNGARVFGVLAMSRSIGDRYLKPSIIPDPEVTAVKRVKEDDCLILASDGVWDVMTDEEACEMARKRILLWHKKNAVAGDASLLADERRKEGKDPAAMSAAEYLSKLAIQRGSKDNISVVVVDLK
Variant | relative binding score
L94F | 38.1%
R90V | 8.65%
F47Y | 15.5%
E147V | 10.7%
R99Q | 18.8%
E130V | 24.2%
R163P | 0.0336%
F56Y | -8.31%
H55Q | 27.4%
Q7N | 10.7%

Series 6 — technique: RNA Bind-n-Seq; molecule type: RNA; sample: in vitro; tested at: not given; setting: RNA with constant flanks, ends assumed; reference: input RNA pool; direction: higher = stronger binding
Target: RING finger protein unkempt homolog, zinc fingers 1-6, GST-SBP tag (UNK, Homo sapiens, UniProt Q9C0B0, residues 30-357)
Shared flanks, not repeated: GGGAGUUCUACAGUCCGACGAUC … CAACAGAGGAUUGAGCAUCA
Construct (chain): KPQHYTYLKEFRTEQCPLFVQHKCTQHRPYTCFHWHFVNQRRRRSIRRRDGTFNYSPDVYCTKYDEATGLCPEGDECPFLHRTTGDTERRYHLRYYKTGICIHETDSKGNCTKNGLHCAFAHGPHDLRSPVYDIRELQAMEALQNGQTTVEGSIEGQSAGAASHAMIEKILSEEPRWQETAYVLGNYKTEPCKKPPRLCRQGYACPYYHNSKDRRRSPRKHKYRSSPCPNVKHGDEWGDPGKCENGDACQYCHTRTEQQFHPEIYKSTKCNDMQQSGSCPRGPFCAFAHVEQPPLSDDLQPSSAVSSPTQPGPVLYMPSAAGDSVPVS
Sequence | bound/input enrichment [ratio]
UCCAGUCCAAGGGAAGAGGAGAUCCCGCCCCUCUUUUGGGGUCUGGAUCCUGUGUUUCCCGCCUUUGCAAAACUCUACAUCAAGGAUAUCCUGGAGAUGAAGGAGUCCCAACAAGUGCCA | 0.0927
GCUGUCAGGCCUCAUCCACUGUGAAUCCCCCAGGUUCUUAAAACUUUAAAAUUUUUGAAUUUCCGAUAAUUAUGGAAUUAAUGCAAUGUCACACACUACUGUUAACUCUGUGGCCAAUUA | 1.19
GGGAACAACAAUCAAAGUAAACCAGGCUUCCUGAGGAAGAAUCAUUAUACAAACACCAAACCCGAGGUGAAAAAAAUCCCCCAGGAAUUGAACAACAUUACCAAGCUCAACGAACACUUC | 0.169
AAAGAAGAGAAAGAAGAUGAAAUUUCAUUAGAAGAUCUAAUUGAGAGAGAGCGUUCUGCCCCCGGUCCAAAUGUUACCAAAAUCACUCUAGAAUCUUUUCUUGCCUGGAAGAAAAGGAAA | 0.444
AAGAGCACCUCAGGAAGCACUGGGGCGGGUGACACUCGUCUCGGCGACCAAGGGCAGUGCCCGCAUCUGUCCGCAUUGCCUAUGCUCCGUUCAAUCCUGAACUAAAGCGUACACUUCUUC | 0.0338
GGUCACACCAGGCCUAAGAAGGCAGAAGUUGAAUCAAUUGAACUAGGGCACUAAACUGAACCGUUGACAGUGUCAUUUUAUGUUGGAUUAUUAAUUCCUGUUUUUCUUUCUGCUAUCUGU | 0.188
CACCAUGGCUGUGUUUGUCGUGCUCCUGGCGUUGGUGGCGGGUGUUUUGGGGAACGAGUUCCGUAUAUUAAAAUCACCAGGGUCUGUUGUUUUCCGAAAUGGAAAUUGGCCUAUACCAGG | 0.279
CUGGGAGAUCUUCGAACUUUGGAAUUGCUUCUUAUCUGUGCAGGCCACCCUCAGUAUGAGGCCGCCGAAAUUUCCUUUAACUUUUGGUACCGACUAGGAGAACAUUUAUACAAAACCAAU | 0.977

Single results of other studies
Substance | target | test | system | setting | scale | quantity | value
PhoQ, residues 284 288 289 292 302 303 SSCCRF | PhoP, residues 12 14 15 18 19 AQCLL (Escherichia coli, UniProt P23836) | Sort-seq, measured: YFP reporter | E. coli | PhoQ-PhoP variant library, together with: 10 µM Mg2+ | reference: high Mg2+ state, higher = stronger signaling | fold induction | 2.61

Some of these lines once more (series 1):
Sequence | E-score
ATCTTCAG | 0.0625
ATGCCCCA | -0.249
ATCCATTG | 0.131
ACGCGCGA | -0.266
TAATAGTA | 0.308
CGTATCCA | -0.00772
CGCGGGCA | -0.282
AACTCGCT | -0.017
AATATTGA | 0.416
CCGATATC | -0.0166
CGAATTAC | 0.0728
